Values quoted from earlier work that unrelated publications cite.
Lines come from different studies, so protocols differ. ± marks the error that the study gave. In brackets after ≈: the same amount, converted by molar mass.
PIK3C2B: Phosphatidylinositol 4-phosphate 3-kinase C2 domain-containing subunit beta (PIK3C2B, Homo sapiens, UniProt O00750)
Chain of UniProt O00750 (whole entry, looked up): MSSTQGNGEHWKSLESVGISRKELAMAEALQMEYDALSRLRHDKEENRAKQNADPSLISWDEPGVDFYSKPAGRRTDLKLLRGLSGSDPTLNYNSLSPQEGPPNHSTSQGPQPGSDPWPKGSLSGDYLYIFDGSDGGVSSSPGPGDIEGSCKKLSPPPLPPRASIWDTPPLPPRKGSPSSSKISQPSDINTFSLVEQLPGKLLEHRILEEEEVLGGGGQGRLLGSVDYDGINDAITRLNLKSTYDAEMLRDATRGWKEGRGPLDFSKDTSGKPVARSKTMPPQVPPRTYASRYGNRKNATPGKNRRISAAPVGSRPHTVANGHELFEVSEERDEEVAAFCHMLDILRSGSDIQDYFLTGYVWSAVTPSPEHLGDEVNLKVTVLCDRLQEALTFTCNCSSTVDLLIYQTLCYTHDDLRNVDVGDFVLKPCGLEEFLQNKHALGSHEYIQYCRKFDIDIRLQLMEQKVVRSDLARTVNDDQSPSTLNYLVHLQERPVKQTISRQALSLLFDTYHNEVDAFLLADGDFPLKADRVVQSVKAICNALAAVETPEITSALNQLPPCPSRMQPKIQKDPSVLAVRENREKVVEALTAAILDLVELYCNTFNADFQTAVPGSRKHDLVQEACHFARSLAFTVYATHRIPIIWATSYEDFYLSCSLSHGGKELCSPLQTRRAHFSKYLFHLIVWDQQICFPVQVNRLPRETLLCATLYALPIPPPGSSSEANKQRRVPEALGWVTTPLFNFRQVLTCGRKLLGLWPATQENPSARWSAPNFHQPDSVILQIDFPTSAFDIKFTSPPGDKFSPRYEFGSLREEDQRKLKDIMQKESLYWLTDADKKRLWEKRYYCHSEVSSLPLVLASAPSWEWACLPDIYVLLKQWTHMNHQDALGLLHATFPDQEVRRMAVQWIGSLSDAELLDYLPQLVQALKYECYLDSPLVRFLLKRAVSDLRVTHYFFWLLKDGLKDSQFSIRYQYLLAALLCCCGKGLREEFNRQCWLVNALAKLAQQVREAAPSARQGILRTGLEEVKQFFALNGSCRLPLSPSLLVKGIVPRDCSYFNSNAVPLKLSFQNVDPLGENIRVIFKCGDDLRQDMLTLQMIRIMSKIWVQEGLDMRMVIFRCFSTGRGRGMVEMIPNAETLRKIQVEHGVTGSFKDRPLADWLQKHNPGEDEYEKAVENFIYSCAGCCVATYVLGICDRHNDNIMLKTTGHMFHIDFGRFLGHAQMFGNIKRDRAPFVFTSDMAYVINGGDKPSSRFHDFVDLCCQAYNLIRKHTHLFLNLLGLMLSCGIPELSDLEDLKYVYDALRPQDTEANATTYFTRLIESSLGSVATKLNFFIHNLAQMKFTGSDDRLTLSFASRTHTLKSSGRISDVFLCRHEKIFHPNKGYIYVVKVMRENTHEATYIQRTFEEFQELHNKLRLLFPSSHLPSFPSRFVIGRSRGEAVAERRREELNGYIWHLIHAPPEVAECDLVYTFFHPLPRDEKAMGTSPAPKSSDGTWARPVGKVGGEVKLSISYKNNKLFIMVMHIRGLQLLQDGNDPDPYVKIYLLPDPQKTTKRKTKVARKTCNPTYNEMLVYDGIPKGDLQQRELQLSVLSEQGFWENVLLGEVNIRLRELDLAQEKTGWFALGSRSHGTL
Chain of UniProt Q9Y6L6 (whole entry, looked up): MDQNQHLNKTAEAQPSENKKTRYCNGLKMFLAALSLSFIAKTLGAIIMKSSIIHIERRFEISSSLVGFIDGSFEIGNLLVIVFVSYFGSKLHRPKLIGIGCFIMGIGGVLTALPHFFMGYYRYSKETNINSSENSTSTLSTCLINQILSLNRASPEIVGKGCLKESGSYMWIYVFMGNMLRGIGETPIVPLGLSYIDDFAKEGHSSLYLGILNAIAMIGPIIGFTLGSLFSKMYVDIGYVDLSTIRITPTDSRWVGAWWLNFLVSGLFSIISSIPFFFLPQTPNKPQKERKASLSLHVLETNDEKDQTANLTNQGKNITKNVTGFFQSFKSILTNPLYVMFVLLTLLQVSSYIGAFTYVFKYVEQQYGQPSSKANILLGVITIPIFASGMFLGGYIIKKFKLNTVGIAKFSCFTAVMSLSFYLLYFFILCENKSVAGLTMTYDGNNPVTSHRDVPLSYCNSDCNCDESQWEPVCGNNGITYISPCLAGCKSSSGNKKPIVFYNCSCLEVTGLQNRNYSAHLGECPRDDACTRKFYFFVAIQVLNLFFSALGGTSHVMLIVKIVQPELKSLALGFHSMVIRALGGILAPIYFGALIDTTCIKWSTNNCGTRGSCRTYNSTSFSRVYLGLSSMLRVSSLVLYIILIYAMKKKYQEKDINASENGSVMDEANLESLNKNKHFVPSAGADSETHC
Chain of UniProt Q9HC98 (whole entry, looked up): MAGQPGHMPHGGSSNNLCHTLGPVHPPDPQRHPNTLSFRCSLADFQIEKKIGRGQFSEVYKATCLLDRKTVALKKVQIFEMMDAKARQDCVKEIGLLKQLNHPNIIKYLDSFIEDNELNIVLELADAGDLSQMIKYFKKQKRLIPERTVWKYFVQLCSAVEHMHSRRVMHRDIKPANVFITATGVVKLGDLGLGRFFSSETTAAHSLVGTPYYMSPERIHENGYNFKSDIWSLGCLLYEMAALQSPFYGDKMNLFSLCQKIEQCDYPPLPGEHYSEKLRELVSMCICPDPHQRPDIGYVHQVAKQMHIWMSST
Chain of UniProt Q9Y6M4 (whole entry, looked up): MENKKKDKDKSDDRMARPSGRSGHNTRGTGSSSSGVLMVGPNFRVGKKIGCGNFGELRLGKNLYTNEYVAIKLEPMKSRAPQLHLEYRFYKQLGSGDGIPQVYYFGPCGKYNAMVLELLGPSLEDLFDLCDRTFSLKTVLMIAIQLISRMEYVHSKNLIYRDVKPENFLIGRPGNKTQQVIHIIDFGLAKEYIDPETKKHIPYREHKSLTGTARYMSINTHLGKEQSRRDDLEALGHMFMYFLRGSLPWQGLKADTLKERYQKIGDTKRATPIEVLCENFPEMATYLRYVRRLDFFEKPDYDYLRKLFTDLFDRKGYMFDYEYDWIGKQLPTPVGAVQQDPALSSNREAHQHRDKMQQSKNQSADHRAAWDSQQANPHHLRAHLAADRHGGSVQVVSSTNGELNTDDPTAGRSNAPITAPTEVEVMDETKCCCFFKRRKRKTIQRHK
Chain of UniProt Q9BY41 (whole entry, looked up): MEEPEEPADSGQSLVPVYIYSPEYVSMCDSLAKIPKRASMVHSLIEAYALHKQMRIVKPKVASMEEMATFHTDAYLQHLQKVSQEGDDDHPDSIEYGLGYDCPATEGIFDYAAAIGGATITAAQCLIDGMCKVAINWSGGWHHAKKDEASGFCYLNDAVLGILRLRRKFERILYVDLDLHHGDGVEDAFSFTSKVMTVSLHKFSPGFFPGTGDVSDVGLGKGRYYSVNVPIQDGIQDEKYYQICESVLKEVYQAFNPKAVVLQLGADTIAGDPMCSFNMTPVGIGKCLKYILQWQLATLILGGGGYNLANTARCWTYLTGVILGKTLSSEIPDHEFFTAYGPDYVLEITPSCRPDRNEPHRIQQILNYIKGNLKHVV
Chain of UniProt P14867 (whole entry, looked up): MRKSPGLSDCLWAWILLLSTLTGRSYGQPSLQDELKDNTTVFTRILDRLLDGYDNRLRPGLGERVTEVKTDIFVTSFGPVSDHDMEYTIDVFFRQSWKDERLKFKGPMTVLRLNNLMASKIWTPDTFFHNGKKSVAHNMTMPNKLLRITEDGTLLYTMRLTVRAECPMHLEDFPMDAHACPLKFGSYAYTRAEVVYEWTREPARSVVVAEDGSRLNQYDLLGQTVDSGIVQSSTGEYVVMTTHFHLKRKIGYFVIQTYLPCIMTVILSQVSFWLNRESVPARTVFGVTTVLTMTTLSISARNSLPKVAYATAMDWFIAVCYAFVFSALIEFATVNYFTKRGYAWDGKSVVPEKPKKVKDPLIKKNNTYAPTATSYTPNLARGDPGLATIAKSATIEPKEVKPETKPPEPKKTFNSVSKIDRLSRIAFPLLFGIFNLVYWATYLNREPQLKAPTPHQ
Chain of UniProt Q02936 (whole entry, looked up): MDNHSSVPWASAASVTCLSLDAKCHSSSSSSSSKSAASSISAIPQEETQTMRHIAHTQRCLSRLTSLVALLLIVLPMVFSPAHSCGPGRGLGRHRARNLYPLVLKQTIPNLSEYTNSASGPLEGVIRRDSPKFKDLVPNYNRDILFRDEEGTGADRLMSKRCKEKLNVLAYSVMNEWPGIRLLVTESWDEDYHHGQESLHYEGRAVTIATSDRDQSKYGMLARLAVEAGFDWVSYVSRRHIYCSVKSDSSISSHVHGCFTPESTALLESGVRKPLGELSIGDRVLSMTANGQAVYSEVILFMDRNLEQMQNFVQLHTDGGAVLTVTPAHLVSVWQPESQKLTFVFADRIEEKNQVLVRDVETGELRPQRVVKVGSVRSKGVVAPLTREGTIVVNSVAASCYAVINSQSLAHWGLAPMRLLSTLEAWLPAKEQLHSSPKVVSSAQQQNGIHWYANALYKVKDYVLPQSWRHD

Structure (SMILES) = CCN(c1cc(-c2ccc(CN3CCOCC3)cc2)cc(C(=O)NCc2c(C)cc(C)[nH]c2=O)c1C)C1CCOCC1; target or system = SMYD2 (Homo sapiens, UniProt Q9NRG4); assay = enzyme activity, inhibitor; conditions = 1 µM; endpoint = inhibition; result = 1 ± 2%
Structure (SMILES) = CC(C)CCC[C@@H](C)[C@H]1CC[C@H]2[C@@H]3CC=C4C[C@@H](O)CC[C@]4(C)[C@H]3CC[C@]12C; target or system = hh, HhC autoprocessing domain (Drosophila melanogaster, UniProt Q02936); assay = substrate; conditions = native substrate; endpoint = Km; result = 1 µM
Structure (SMILES) = Cc1[nH]c(C)c(-c2ccc(-c3ccc(Cl)cc3)nc2)c(=O)c1Cl; target or system = Plasmodium falciparum; assay = whole cell extended time; test system = 3D7; conditions = 72 h; endpoint = IC50; result = 110 nM
Structure (SMILES) = Nc1ccccc1NC(=O)c1ccc(CNc2nccc(-c3cccnc3)n2)cc1; target or system = HDAC8 (Homo sapiens, UniProt Q9BY41); assay = enzyme activity, inhibitor; endpoint = IC50; result = inactive
Structure (SMILES) = Cc1cc(NC(=O)c2cccc(NC(=O)/C=C/CN(C)C)c2)ccc1Nc1nccc(-c2cccnc2)n1; target or system = DYRK2 (Homo sapiens, UniProt Q92630); assay = enzyme activity, inhibitor; conditions = 1 µM; how to read = reference: vehicle; endpoint = remaining activity; result = 20%
Structure (SMILES) = Cc1cn([C@@H]2O[C@H](CO)[C@@H](O)[C@H]2O)c(=O)nc1N; target or system = cytidine deaminase (human); assay = substrate; conditions = concentration not given; endpoint = Km; result = 4 µM
Structure (SMILES) = O=C(O)C1=CCCN(CCON=C(c2ccccc2)c2ccccc2)C1; target or system = Slc6a1 (Rattus norvegicus, UniProt P23978); conditions = historical reference value; endpoint = Hill coefficient; result = 1.1
Structure (SMILES) = N=C1NC(=O)C2(CCc3ccccc32)C(=O)N1 (stereo not shown); target or system = GABA-A receptor alpha-1/beta-3, with gamma-2 subunit (GABRA1/GABRB3, Homo sapiens, UniProt P14867+P28472); assay = reversal, anesthetic-enhanced desensitization; conditions = concentration not given, α1β3γ2 receptor; how to read = higher is stronger; endpoint = inhibition; result = 63%
Structure (SMILES) = [Zn]; target or system = glycine receptor; assay = positive modulator; endpoint = concentration of peak potentiation; result = ~1 µM
Structure (SMILES) = CCC(=O)O[C@]1(C(=O)SCF)[C@H](C)C[C@H]2[C@@H]3C[C@H](F)C4=CC(=O)C=C[C@]4(C)[C@@]3(F)[C@@H](O)C[C@@]21C; target or system = Nr3c1 (Rattus norvegicus, UniProt P06536); test system = rat, spleen; conditions = intravenous, 90 nmol/kg, 1.133 (unit not given); endpoint = receptor occupancy; result = 53.5%
Structure (SMILES) = COC(=O)[C@H](c1ccccc1Cl)N1CCc2sccc2C1; target or system = CES1; endpoint = Km; result = 46.4 µM
Structure (SMILES) = COc1ccc2c(NN=Cc3ccc(Cl)cc3)ccnc2c1; target or system = Plasmodium falciparum; assay = whole cell extended time; test system = 3D7; conditions = 72 h; endpoint = IC50; result = 870 nM
Structure (SMILES) = Nc1ncn([C@@H]2O[C@H](CO)[C@@H](O)[C@H]2O)c(=O)n1; target or system = cytidine deaminase (human); assay = substrate; conditions = concentration not given; endpoint = Km; result = 28 µM
Structure (SMILES) = CC(C)CCC[C@@H](C)[C@H]1CC[C@H]2[C@@H]3CC=C4C[C@@H](O)CC[C@]4(C)[C@H]3CC[C@]12C; target or system = CYP27A1 (Homo sapiens, UniProt Q02318); assay = substrate; endpoint = kcat; result = 0.163 s⁻¹
Structure (SMILES) = CC1(C)S[C@@H]2[C@H](NC(=O)[C@H](N)c3ccccc3)C(=O)N2[C@H]1C(=O)O; target or system = Pseudomonas aeruginosa; test system = clinical isolate RKI-No_230/10; endpoint = MIC; result = > 16 µg/mL
Structure (SMILES) = COc1cccc(OC)c1-c1cc(C(=O)NC2(C(=O)O)CCCCC2)nn1-c1cccc2ccccc12; target or system = Ntsr1 (Rattus norvegicus, UniProt P20789); assay = antagonist, FLIPR calcium; endpoint = Ke; result = 230 ± 79 nM
Structure (SMILES) = CO[C@H]1/C=C/O[C@@]2(C)Oc3c(C)c(O)c4c(O)c(c(/C=N/N5CCN(C)CC5)c(O)c4c3C2=O)NC(=O)/C(C)=C\C=C\[C@H](C)[C@H](O)[C@@H](C)[C@@H](O)[C@@H](C)[C@H](OC(C)=O)[C@@H]1C; target or system = SLCO1B1 (Homo sapiens, UniProt Q9Y6L6); assay = substrate; endpoint = Km; result = 1.5 to 13 µM
Structure (SMILES) = O=C(NCc1c(F)cc(F)cc1F)c1cn2c(c(O)c1=O)C(=O)N1[C@H]3CC[C@H](C3)O[C@@H]1C2; target or system = HIV-1 integrase-DNA complex; endpoint = dissociation half-life; result = ~163 h
Structure (SMILES) = Nc1cc(C(F)(F)F)c(-c2nc(N3CCOCC3)nc(N3CCOCC3)n2)cn1; target or system = NEK6 (Homo sapiens, UniProt Q9HC98); assay = enzyme activity; conditions = 10 µM; how to read = reference: untreated; endpoint = remaining activity; result = 100%
Structure (SMILES) = Cc1ccc2nc(NC(=O)CSc3nc4c(c(=O)n3-c3ccc(F)cc3)SCC4)sc2c1; target or system = CSNK1G3 (Homo sapiens, UniProt Q9Y6M4); conditions = 10 µM; endpoint = inhibition; result = ~40%
Structure (SMILES) = O=C(c1cc(-c2cc3c(cc2C(=O)N2Cc4ccccc4C[C@H]2CN2CCOCC2)OCO3)n2c1CCCC2)N(c1ccccc1)c1ccc(O)cc1; target or system = BCL-2 G101V; assay = competitive binding; conditions = concentration not given; how to read = reference: G101V over wild type; endpoint = Ki fold change; result = 100
Structure (SMILES) = Cc1cc(NS(=O)(=O)c2ccc(N)cc2)no1; target or system = NAT2; assay = substrate; endpoint = Km; result = 5000 µM
Structure (SMILES) = CNC(C)C1CCC(N)C(OC2C(N)CC(N)C(OC3OCC(C)(O)C(NC)C3O)C2O)O1 (stereo not shown); target or system = Pseudomonas aeruginosa; test system = clinical isolate RKI-No_230/10; endpoint = MIC; result = 8 µg/mL (≈ 16.8 µM)
Structure (SMILES) = CC1=CC(=O)CC(C)(C)C1=O; target or system = 12-oxophytodienoate reductase OPR1 (isoform 1); assay = ene-reductase biotransformation, substrate; endpoint = conversion; result = 95 to 98%
Structure (SMILES) = O=C(Nc1nc2ccccc2[nH]1)c1ccccc1; target or system = RAR-related orphan receptor gamma; conditions = PubChem AID 2546; endpoint = activity; result = 7.9 µM
Structure (SMILES) = C=CC(=O)N1CCC(C(=O)NCC(=O)N2CCN(c3nc(-c4cnc(N)nc4C(F)F)nc(N4CCOCC4)n3)CC2)CC1; target or system = PIK3C2B; assay = kinase activity; conditions = 1 µM; endpoint = remaining activity; result = 21%
Structure (SMILES) = O=C(O)CN(CC(=O)O)[C@H]1CCCC[C@@H]1N(CC(=O)O)Cc1ccccn1; target or system = Albumin (ALB, Bos taurus, UniProt P02769); conditions = added: 0.67 mM albumin; endpoint = r1 relaxivity; result = 3.8 mM⁻¹ s⁻¹
Structure (SMILES) = CC1=CC(=O)N(c2ccccc2)C1=O; target or system = 12-oxophytodienoate reductase OPR3 (isoform 3); assay = ene-reductase biotransformation, substrate; endpoint = conversion; result = 99%
Structure (SMILES) = Cc1c(CN2CCN(C(=O)[C@H](C)O)CC2)sc2c(N3CCOCC3)nc(-c3cnc(N)nc3)nc12; target or system = PIK3C2B; assay = KinomeScan competition binding; conditions = 10 µM; endpoint = remaining binding; result = 31%
Structure (SMILES) = CC(C)(O/N=C(\C(=O)N[C@@H]1C(=O)N2C(C(=O)[O-])=C(C[N+]3(CCNC(=O)c4ccc(O)c(O)c4Cl)CCCC3)CS[C@H]12)c1csc(N)n1)C(=O)O; target or system = KPC-31; assay = hydrolysis by enzyme, substrate; endpoint = Km; result = 12 µM
Structure (SMILES) = O=[N+]([O-])c1cc(C(F)(F)F)ccc1NCc1ccco1; target or system = Endothelial PAS domain-containing protein 1, PAS-B domain (EPAS1, Homo sapiens, UniProt Q99814); assay = isothermal titration calorimetry; conditions = concentration not given, <0.1% DMSO; endpoint = binding enthalpy; result = -8.4 kcal/mol

A few entries again:
Structure (SMILES) = CC1=CC(=O)N(c2ccccc2)C1=O; target or system = 12-oxophytodienoate reductase OPR3 (isoform 3); assay = ene-reductase biotransformation, substrate; endpoint = conversion; result = 99%
Structure (SMILES) = COC(=O)[C@H](c1ccccc1Cl)N1CCc2sccc2C1; target or system = CES1; endpoint = Km; result = 46.4 µM
